Results of several laboratories.
Each numbered part is a random draw from the data of one study; scales do not carry over between parts. Values joined by “and” are separate records of one study, mostly repeats; a detail may differ.
Sequence of UniProt O43781 (whole entry, looked up): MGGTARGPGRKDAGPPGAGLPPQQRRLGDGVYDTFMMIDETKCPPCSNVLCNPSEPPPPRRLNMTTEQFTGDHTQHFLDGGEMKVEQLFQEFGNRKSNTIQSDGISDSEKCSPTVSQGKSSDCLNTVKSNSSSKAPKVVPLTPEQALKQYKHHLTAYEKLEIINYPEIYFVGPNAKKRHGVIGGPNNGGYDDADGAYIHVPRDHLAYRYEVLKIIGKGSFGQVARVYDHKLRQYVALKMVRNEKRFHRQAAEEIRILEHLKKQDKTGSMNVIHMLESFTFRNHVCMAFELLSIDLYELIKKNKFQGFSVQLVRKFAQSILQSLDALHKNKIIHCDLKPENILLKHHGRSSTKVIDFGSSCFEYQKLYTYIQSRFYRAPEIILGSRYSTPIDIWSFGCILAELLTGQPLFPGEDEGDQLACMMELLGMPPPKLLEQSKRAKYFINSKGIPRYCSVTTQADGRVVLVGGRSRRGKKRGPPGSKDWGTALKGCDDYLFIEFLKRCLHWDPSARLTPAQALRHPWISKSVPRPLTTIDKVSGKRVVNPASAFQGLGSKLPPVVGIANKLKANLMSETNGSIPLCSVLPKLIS
Sequence of UniProt P51451 (whole entry, looked up): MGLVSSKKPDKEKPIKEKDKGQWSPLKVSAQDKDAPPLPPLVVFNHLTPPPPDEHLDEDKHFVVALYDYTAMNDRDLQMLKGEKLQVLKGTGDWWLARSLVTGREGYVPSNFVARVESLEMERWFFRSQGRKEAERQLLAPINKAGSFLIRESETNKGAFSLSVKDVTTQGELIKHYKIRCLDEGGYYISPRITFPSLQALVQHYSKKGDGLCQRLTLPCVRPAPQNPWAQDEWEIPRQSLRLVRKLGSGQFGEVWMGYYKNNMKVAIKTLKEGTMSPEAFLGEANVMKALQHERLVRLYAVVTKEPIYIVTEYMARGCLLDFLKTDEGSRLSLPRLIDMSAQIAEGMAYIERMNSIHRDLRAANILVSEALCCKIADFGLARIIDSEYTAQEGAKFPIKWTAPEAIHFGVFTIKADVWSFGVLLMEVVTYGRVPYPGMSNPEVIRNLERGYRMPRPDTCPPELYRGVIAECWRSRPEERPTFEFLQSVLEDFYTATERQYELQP
Sequence of UniProt P11802 (whole entry, looked up): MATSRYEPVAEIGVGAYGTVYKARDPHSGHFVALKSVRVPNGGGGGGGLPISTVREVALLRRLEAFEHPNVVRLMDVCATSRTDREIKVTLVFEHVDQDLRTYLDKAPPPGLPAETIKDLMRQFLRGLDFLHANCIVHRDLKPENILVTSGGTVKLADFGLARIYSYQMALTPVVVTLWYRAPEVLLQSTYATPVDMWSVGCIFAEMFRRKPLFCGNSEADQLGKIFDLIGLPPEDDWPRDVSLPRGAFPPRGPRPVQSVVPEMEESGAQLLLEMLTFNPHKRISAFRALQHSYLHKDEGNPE
Sequence of UniProt P30530 (whole entry, looked up): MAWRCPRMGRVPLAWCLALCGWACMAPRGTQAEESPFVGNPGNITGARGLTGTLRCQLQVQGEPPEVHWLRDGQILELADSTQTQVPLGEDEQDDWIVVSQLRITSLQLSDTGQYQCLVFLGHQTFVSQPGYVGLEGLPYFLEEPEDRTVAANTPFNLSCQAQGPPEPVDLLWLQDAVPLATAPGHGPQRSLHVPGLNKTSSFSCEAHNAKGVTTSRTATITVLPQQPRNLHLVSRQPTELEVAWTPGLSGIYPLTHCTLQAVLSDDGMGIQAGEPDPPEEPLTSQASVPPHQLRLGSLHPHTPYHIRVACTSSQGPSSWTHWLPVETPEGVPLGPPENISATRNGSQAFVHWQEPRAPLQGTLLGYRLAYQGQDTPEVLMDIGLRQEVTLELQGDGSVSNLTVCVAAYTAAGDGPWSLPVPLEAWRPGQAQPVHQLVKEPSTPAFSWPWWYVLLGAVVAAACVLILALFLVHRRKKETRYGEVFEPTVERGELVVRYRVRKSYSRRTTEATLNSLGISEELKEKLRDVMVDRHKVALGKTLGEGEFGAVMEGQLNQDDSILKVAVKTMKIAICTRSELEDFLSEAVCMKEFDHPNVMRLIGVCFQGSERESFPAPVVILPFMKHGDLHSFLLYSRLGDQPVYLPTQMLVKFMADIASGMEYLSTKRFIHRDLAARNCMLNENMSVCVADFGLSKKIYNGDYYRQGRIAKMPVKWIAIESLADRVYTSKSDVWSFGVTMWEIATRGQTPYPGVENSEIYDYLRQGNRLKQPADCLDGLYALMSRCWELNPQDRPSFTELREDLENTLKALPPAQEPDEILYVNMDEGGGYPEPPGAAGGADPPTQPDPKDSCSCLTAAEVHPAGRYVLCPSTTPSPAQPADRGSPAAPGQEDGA
Sequence of UniProt Q9H2X6 (whole entry, looked up): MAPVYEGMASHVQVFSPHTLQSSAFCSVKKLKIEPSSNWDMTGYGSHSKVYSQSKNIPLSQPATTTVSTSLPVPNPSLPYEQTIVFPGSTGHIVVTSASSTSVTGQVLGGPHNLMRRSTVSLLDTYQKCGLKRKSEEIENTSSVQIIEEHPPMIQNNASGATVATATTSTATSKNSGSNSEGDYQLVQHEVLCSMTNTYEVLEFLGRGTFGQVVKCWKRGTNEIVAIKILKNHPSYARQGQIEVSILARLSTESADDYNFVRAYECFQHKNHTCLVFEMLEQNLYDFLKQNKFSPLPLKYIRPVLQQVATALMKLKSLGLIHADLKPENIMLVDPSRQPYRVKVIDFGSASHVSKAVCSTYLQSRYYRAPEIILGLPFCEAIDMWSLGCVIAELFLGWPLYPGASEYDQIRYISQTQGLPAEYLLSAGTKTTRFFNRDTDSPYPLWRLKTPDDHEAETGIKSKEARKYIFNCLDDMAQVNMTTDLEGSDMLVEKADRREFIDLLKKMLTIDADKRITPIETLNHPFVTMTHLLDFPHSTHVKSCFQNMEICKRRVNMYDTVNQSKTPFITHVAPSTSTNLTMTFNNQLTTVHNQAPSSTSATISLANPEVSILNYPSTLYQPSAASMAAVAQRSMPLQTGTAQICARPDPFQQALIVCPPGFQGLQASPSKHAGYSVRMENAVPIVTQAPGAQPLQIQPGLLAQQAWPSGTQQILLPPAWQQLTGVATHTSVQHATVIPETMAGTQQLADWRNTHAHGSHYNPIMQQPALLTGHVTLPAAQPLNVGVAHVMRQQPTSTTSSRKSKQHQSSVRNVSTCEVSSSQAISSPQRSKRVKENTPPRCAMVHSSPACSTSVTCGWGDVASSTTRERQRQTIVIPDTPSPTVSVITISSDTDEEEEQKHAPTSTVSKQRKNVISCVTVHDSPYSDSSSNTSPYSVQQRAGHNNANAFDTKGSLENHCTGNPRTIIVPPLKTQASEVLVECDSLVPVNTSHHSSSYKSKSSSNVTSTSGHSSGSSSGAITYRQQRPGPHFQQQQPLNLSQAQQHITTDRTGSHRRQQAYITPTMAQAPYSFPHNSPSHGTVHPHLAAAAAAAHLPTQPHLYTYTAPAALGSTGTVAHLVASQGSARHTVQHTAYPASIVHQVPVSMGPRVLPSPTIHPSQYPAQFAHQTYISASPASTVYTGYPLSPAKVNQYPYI
Sequence of UniProt P06493 (whole entry, looked up): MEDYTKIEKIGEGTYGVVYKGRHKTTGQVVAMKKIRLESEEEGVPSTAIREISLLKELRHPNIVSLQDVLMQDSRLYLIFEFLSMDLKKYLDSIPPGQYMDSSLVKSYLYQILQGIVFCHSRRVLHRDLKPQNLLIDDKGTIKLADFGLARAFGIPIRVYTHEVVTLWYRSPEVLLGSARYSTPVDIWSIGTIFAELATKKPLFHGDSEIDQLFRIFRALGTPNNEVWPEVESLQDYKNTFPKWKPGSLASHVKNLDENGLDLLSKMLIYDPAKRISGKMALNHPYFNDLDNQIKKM
Sequence of UniProt Q00534 (whole entry, looked up): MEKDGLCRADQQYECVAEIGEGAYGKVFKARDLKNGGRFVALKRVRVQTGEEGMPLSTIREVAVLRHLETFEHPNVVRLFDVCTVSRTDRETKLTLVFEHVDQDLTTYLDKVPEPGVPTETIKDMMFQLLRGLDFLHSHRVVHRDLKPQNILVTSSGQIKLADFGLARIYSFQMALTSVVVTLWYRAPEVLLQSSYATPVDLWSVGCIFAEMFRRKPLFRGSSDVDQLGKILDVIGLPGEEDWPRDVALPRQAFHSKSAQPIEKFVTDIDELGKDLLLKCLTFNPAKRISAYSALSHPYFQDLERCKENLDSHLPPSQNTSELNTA

Sample 1 — read-out: ligand displacement; concentration: 10 µM
Target: Muscarinic acetylcholine receptor M1 (CHRM1, Homo sapiens, UniProt P11229)
Sequence of UniProt P11229 (whole entry, looked up): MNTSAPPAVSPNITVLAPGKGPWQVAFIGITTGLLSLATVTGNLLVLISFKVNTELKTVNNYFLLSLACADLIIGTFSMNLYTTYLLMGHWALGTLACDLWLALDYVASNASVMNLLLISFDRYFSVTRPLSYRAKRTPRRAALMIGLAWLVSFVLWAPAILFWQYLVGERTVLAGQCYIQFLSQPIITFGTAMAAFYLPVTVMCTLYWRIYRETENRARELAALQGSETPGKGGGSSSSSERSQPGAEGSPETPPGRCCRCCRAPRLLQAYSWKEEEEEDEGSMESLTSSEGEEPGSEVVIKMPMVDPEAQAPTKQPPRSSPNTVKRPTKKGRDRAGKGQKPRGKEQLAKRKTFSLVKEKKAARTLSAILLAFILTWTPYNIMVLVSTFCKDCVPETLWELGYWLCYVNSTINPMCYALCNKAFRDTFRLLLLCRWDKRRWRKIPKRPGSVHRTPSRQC
Structure (SMILES)	inhibition [%]
CCC(F)(F)c1cc(N2CCC(S(C)(=O)=O)CC2)nc2sc(C(N)=O)c(N)c12	8.33
Cc1ncc(-c2cc(Cl)ccc2F)cc1-n1c(=O)n(CC(N)=O)c2ccccc21	-1.17
O=C(N[C@H]1CCCCC/C=C\C2C[C@@]2(C(=O)O)NC(=O)[C@@H]2C[C@@H](Oc3ccncc3)CN2C1=O)OC1CCCC1 (stereo partly drawn)	14.1
CCOc1ccc(S(=O)(=O)Nc2ccc(Cl)cc2C#Cc2cnc(C(=O)O)cc2OC)c2ncccc12	16.3
O=c1nc(-c2ccccn2)sc2ccccc12	-5.27
CS(=O)(=O)N1CCCC(NC(=O)[C@H](CCC2CCCCC2)NC(=O)c2ccc(CNC(=O)c3cnc4ccccn34)cc2)C1 (stereo partly drawn)	28.4
Cn1cc(Cl)c2c(Oc3c(F)cc(Nc4cc(Cl)nc(N)n4)cc3F)ccnc21	-5.04
CN(C)C(=O)c1sc2nc(N3CCC(S(C)(=O)=O)CC3)cc(C(F)(F)F)c2c1N	0.25
O=C(NCCCC1CCCCC1)c1ccc(CNC(=O)c2cnn(-c3ccccc3)c2C(F)(F)F)cc1	11.8
Cc1noc([C@H]2C[C@@H](c3ccc(C(F)(F)F)cc3)CN(C(=O)N3CCS(=O)(=O)C3)C2)n1	-7.31

Sample 2 — read-out: enzyme activity; mode: inhibitor; concentration: 0.5 µM; relative to: control
Compound: COc1ccc2c(c[n+](C)c3c4cc5c(cc4ccc23)OCO5)c1OC
target	remaining activity [%]
DYRK3 (Homo sapiens, UniProt O43781)	101
Cyclin-dependent kinase 1, with cyclin B (CDK1, Homo sapiens, UniProt P06493)	84.4
SRMS (Homo sapiens, UniProt Q9H3Y6)	86
WNK3 (Homo sapiens, UniProt Q9BYP7)	101
BLK (Homo sapiens, UniProt P51451)	98.7
AXL (Homo sapiens, UniProt P30530)	98
Cyclin-dependent kinase 4, with cyclin D3 (CDK4, Homo sapiens, UniProt P11802)	98.8
Cyclin-dependent kinase 6, with cyclin D3 (CDK6, Homo sapiens, UniProt Q00534)	94.6
HIPK2 (Homo sapiens, UniProt Q9H2X6)	92.6

Sample 3 — cell line: mouse MPNST tumor cells; method: high-content immunofluorescence imaging; item: nuclear SOX9; concentration: 10 µM; time: 12 h; setting: mean of 2 replicates; relative to: DMSO control; reading: higher = more nuclear SOX9
SMILES	nuclear SOX9 intensity
CN1C(=O)CCS(=O)(=O)C1c1ccc(Cl)cc1 (stereo not drawn)	102 % of DMSO and 97.5 % of DMSO and 101 % of DMSO
CN1[C@@H]2CC[C@H]1C[C@@H](OC(=O)c1cc(Cl)cc(Cl)c1)C2	153 % of DMSO
C=CCN1C[C@H](C)N([C@H](c2ccc(C(=O)N(CC)CC)cc2)c2cccc(OC)c2)C[C@H]1C	132 % of DMSO
CN1[C@@H]2CC[C@H]1CC(OC(=O)N1Cc3ccccc3NC1=O)C2 (stereo partly drawn)	99.5 % of DMSO
CCCCCn1cc(C(=O)NC23CC4CC(CC(C4)C2)C3)c(=O)c2cc(-c3ccccc3)ccc21	97.1 % of DMSO

Further values, each from its own experiment — cell line: L929
Structure (SMILES)	read-out	method	matrix	concentration	added	viability
CC[C@H](C)c1nc2cc(Nc3ccnc4ccc(S(=O)(=O)C(C)C)cc34)ccc2s1	necroptosis protection	CCK-8		2.5 µM	TNF-α plus zVAD	42.9%
CC(C)S(=O)(=O)c1ccc2nccc(Nc3ccc4scnc4c3)c2c1	necroptosis protection	CCK-8		0.625 µM	TNF-α plus zVAD	22.7%
CC(C)(C)c1nc(-c2cccc(NS(=O)(=O)c3c(F)cccc3F)c2F)c(-c2ccnc(N)n2)s1			MEM 10% FBS	25 µM		51% and 55.2% and 54.4%

Some of these lines once more (sample 1):
Structure (SMILES)	inhibition [%]
CCC(F)(F)c1cc(N2CCC(S(C)(=O)=O)CC2)nc2sc(C(N)=O)c(N)c12	8.33
Cc1ncc(-c2cc(Cl)ccc2F)cc1-n1c(=O)n(CC(N)=O)c2ccccc21	-1.17
